Measured values of several laboratories.
Parts stem from different laboratories: compare values within a part only.
Chain of UniProt Q13523 (whole entry, looked up): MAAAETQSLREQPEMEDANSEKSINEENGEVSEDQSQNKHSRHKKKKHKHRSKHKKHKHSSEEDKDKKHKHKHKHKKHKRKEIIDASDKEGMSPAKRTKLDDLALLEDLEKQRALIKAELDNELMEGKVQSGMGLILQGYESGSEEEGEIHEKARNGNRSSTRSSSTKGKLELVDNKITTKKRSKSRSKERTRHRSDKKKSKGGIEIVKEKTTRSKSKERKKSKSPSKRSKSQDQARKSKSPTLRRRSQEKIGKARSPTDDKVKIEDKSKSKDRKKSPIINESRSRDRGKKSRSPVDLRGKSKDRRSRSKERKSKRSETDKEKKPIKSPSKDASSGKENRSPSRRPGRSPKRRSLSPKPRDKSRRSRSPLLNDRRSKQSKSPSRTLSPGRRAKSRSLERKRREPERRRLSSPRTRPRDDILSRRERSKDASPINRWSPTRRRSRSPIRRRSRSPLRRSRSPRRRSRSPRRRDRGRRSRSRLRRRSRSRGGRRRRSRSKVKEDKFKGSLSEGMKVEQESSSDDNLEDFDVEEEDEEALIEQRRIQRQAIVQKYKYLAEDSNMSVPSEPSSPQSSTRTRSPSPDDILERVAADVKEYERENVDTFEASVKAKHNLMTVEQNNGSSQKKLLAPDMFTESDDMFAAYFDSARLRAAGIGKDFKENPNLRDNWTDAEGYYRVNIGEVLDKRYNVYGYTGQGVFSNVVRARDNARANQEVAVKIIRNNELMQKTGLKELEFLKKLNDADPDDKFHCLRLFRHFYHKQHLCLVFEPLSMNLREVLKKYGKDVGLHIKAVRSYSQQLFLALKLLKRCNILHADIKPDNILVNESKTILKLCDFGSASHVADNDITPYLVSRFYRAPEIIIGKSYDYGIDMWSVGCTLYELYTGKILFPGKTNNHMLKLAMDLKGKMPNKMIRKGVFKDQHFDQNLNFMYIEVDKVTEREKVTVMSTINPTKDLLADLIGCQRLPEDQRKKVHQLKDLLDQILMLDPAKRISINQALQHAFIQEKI
Chain of UniProt P07333 (whole entry, looked up): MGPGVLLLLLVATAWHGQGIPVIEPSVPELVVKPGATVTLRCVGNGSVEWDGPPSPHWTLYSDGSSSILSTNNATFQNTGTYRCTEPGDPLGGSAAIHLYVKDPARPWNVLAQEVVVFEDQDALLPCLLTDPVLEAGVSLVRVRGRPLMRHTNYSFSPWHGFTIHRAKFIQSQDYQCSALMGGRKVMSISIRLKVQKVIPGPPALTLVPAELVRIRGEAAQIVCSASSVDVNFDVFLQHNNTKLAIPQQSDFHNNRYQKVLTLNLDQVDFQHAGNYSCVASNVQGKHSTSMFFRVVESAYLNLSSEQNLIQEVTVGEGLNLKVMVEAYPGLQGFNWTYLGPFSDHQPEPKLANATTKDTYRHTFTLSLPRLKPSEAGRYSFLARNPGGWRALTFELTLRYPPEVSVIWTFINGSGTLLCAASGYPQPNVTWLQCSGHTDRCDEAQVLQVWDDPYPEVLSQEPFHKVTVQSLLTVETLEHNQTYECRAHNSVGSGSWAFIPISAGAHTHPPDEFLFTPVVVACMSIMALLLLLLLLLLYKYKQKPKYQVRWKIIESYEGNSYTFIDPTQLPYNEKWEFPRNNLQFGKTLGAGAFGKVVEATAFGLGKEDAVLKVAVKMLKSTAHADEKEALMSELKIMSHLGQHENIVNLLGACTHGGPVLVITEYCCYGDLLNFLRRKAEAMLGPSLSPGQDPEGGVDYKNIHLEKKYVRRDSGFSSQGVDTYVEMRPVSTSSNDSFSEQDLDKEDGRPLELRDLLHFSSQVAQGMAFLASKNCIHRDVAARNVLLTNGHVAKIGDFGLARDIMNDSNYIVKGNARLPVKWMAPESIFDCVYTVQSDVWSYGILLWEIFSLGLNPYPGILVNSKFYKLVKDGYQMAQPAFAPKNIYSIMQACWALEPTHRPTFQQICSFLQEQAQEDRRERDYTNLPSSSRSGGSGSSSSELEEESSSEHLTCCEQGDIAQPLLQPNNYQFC
Chain of UniProt Q9UPE1 (whole entry, looked up): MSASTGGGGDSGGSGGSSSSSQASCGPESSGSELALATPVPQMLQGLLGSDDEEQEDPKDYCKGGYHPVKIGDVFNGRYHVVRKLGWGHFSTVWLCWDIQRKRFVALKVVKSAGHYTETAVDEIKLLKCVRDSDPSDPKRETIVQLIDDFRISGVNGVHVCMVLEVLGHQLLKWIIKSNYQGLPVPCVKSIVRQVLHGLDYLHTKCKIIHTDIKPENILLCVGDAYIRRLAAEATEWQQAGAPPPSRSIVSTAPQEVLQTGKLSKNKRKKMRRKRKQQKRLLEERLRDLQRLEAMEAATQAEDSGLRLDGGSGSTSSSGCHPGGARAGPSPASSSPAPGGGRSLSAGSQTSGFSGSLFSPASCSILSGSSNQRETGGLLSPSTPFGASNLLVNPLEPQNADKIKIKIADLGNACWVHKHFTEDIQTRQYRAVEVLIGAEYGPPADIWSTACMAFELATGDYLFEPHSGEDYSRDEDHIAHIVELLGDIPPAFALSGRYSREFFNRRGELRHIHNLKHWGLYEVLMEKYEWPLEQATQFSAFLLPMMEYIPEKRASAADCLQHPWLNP
Chain of UniProt P29317 (whole entry, looked up): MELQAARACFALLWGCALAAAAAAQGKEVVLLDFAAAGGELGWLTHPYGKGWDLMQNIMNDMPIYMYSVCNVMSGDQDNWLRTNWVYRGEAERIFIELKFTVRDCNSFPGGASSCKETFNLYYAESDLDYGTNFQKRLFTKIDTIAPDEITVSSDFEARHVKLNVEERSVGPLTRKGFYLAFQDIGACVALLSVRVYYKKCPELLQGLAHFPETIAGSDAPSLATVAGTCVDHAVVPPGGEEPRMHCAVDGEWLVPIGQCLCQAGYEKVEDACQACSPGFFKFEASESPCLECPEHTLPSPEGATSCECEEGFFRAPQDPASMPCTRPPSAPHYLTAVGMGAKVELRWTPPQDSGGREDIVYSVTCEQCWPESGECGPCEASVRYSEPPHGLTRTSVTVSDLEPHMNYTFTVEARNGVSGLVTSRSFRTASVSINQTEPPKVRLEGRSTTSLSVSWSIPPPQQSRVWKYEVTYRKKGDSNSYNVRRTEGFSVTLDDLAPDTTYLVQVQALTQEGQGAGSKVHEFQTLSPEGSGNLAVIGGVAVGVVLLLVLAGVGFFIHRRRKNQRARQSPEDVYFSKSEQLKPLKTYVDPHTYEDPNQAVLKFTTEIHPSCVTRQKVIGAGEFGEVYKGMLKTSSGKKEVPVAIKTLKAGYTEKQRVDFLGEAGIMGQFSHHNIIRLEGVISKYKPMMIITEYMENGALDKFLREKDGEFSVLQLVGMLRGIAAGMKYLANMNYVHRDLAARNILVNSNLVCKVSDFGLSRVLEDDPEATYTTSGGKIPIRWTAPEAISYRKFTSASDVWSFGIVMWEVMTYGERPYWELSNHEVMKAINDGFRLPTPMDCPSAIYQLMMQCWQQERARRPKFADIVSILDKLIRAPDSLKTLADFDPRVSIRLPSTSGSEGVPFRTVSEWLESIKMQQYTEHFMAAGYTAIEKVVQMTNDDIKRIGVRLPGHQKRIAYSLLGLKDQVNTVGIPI
Chain of UniProt Q8NFD2 (whole entry, looked up): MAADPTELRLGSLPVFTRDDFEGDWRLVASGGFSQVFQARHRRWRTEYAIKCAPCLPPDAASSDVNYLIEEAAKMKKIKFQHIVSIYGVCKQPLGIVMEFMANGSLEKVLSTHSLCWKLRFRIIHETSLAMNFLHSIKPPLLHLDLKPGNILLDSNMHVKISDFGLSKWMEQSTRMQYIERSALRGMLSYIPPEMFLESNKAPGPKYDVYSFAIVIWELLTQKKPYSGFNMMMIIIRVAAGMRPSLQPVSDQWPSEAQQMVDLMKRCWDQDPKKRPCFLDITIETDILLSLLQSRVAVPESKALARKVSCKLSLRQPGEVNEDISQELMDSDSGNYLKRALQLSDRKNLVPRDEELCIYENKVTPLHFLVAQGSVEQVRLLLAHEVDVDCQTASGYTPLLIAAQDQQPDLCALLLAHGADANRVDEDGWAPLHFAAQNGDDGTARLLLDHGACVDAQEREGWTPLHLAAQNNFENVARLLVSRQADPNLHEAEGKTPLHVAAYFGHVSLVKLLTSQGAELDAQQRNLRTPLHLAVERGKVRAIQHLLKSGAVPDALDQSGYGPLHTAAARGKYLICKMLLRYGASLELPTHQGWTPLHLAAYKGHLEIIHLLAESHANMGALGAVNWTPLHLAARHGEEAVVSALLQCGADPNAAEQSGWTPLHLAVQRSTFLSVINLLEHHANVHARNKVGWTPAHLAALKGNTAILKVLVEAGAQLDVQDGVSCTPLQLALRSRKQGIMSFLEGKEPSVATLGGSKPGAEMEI

Set 1 — host: IFN-γ knockout mice; matrix: plasma; route: oral; dose: dose not given
Structure (SMILES): CNC(=O)c1ccc(-c2cnn3ccc(C(=O)N(CCC(=O)OCC(=O)N(C)C)c4ccc(Cl)cc4)cc23)cc1
For 4 h: plasma concentration read “not detected”.
The plasma concentration was “not detected” (1 h).
7 h — plasma concentration: “not detected”.

Set 2 — host: mouse; matrix: microsomes or S9; tested at: 2 µM; time: 0.5 h
With `COc1ccc(C2C(C(=O)N3CCN(c4ccccn4)CC3)CCC(=O)N2c2cc(OC)c(OC)c(OC)c2)cc1` (centres unmarked) the remaining compound was 49.8%.
`OCCCNc1nc(N2CCN(c3ccccc3F)CC2)nc2ccccc12` gave a remaining compound of 0.451%.
`COCCn1c(C)cc(C)c(C(=O)NCCNc2ncccn2)c1=O` has a remaining compound of 70.6%.
`CC1C(c2ccccc2)CCC(C(=O)O)C1C(=O)O` (centres unmarked) gave a remaining compound of 55.7%.
For `O=c1[nH]c(N2CCc3ccccc3C2)nc2ncc3c(c12)CCC3`, the remaining compound was 0.958%.
`O=C(OCC(=O)c1c(-c2ccccc2)[nH]c2ccccc12)c1ccccc1NCCO` has a remaining compound of 37.3%.

Set 3 — effect on: enzyme activity; action: inhibitor; tested at: 0.5 µM; relative to: control
Target: Casein kinase II subunit alpha (CSNK2A1, Homo sapiens, UniProt P68400)
Chain of UniProt P68400 (whole entry, looked up): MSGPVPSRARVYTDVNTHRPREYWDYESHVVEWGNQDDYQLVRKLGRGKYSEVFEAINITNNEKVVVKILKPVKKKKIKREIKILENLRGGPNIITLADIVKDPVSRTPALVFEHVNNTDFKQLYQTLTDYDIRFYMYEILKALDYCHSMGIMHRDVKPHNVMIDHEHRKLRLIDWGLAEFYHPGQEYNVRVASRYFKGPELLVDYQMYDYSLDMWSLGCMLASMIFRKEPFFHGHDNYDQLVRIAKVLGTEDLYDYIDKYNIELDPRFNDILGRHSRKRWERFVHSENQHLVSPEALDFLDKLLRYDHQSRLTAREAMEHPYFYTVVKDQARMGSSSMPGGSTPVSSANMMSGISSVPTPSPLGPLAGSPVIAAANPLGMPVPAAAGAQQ
`COc1ccc(CNC(=O)Nc2ncc([N+](=O)[O-])s2)cc1` has a remaining activity of 94.2%.
`O=C(Nc1cccc(Nc2cc(Nc3cccc(C(F)(F)F)c3)ncn2)c1)C1CC1` gave a remaining activity of 92.6%.
`O=C1NC(=O)C(c2cn(CCCn3ccnc3)c3ccccc23)=C1Nc1ccccc1` gave a remaining activity of 100%.
The remaining activity of `COc1cc2ncnc(Nc3ccc(Oc4ccccc4)cc3)c2cc1OC` is reported as 114%.
`Nc1ccc2ncnc(NCCc3ccc(Oc4ccccc4)cc3)c2c1` has a remaining activity of 95.2%.
With `O=C(CCCc1ccc(-c2ccccc2F)cc1)Nc1ccc(O)cc1` the remaining activity was 89.4%.
`Cn1c2ccccc2c2c3c(c4c5ccccc5n(CCC#N)c4c21)CNC3=O` gave a remaining activity of 73.1%.
`O=c1c2ccccc2[nH]c(=S)n1CCN1CCC(=C(c2ccc(F)cc2)c2ccc(F)cc2)CC1` has a remaining activity of 97.9%.
`OCC(O)CCON=C1C(c2c(O)[nH]c3ccccc23)=Nc2ccccc21` (centres unmarked) has a remaining activity of 57.6%.
The remaining activity of `CC(C)[C@H](CO)Nc1nc(Nc2cc(N)cc(Cl)c2)c2ncn(C(C)C)c2n1` is reported as 99.3%.
`O=S(=O)(c1cccc2cnccc12)N1CCCNCC1` gave a remaining activity of 94.9%.
With `O=C(O)c1ccc2c3c1cccc3c(=O)n1c3ccccc3nc21` the remaining activity was 28.3%.
The remaining activity of `COc1cc2ncnc(Nc3ccc(F)c(Cl)c3)c2cc1OCCCN1CCOCC1` is reported as 114%.
With `COc1ccc(OC)c2c(=S)c3ccccc3[nH]c12` the remaining activity was 100%.
With `NCCNc1ncc(C(N)=O)c(Nc2cccc(C(F)(F)F)c2)n1` the remaining activity was 91.2%.

Set 4 — effect on: cell-free assay; technique: competition with immobilised ligand; tested at: 1 µM
SMILES: CN([C@@H]1CCc2c(CC(=O)O)c3cc(S(C)(=O)=O)ccc3n2C1)S(=O)(=O)c1ccc(F)cc1
The remaining binding was 100% (CSF1R (Homo sapiens, UniProt P07333)).
The remaining binding was 84% (PIK3CA (Homo sapiens, UniProt P42336, E545K)).
For EPHA2 (Homo sapiens, UniProt P29317): remaining binding read 100%.
It gave 96% for remaining binding (ANKK1 (Homo sapiens, UniProt Q8NFD2)).
For SRPK3 (Homo sapiens, UniProt Q9UPE1): remaining binding read 100%.
EGFR (Homo sapiens, UniProt P00533, G719C) — remaining binding: 98%.
PRPF4B (Homo sapiens, UniProt Q13523) — remaining binding: 100%.
BUB1 (Homo sapiens, UniProt O43683) — remaining binding: 86%.

Some of these lines once more (set 1):
For 4 h: plasma concentration read “not detected”.
The plasma concentration was “not detected” (1 h).
7 h — plasma concentration: “not detected”.
